Assay results from different studies.
Numbered parts are unrelated; each lists some results of a single study. Positions count from the first letter of the parent shown.

Sample 1 — method: protein-binding microarray; molecule type: double-stranded DNA, one strand shown; medium: in vitro; concentration: not given; direction: higher = stronger binding
Target: Protein C-ets-1 (ETS1, Homo sapiens, UniProt P14921, residues 1-441, full length assumed)
Sequence of UniProt P14921 (whole entry, looked up): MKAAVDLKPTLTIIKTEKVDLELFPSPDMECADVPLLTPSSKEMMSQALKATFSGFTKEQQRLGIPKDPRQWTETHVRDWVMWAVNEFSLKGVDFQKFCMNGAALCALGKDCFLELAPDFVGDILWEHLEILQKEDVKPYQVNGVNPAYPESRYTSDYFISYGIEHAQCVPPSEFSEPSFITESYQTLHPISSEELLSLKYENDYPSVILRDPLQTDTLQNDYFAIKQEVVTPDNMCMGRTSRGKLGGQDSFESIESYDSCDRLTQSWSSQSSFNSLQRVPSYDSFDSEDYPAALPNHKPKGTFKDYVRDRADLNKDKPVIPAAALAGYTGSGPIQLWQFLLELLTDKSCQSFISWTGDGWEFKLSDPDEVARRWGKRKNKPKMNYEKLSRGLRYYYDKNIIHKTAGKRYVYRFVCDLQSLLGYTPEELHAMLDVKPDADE
Notes: k-mer, scored over probes, only values ≥0.25
Oligonucleotide | E-score
CCGGCATC | 0.308
CGGTATCC | 0.364
GAACTTCC | 0.471
GGATGCTA | 0.324
CCGGATTA | 0.322
GCTGGAAA | 0.319
CGAGGAAA | 0.272
ATGTGGAA | 0.258

Sample 2 — method: RNA Bind-n-Seq; molecule type: RNA; medium: in vitro; concentration: not given; baseline: input RNA pool; direction: higher = stronger binding
Target: RING finger protein unkempt homolog, zinc fingers 1-6, GST-SBP tag (UNK, Homo sapiens, UniProt Q9C0B0, residues 30-357)
Notes: RNA with constant flanks, human and mouse sites, ends assumed
All sequences stand within: GGGAGUUCUACAGUCCGACGAUC … CAACAGAGGAUUGAGCAUCA
Construct (chain): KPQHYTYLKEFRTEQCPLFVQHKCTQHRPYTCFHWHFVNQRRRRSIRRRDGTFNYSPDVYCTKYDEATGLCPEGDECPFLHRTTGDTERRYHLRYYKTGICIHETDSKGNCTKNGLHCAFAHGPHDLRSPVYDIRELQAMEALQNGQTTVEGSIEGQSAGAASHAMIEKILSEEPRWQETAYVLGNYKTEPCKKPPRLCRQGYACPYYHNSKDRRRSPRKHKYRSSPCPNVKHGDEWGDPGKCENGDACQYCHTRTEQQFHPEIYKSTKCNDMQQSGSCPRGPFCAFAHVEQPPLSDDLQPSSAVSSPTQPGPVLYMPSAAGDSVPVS
Oligonucleotide | bound/input enrichment
UAAGAUUUUGUUUUUUCACUUACAGGCUAUAAAAGAGCAGUACAGGGCCCAGCCCAGCUCCUUAGCUAGCGAAUUGCGAUGGAAUGACAUAGCUGUGGCAAAACUAAGCGGCCGCUGCUC | 0.3 ratio
AAUAUAAUGCAGGUUUUUAUAUACUGUCUGGAACAGUUGAGCACCAAGCCUGAUGCAGAUAUAGAUACUACACAUCUCUCUGUUGAUGUUUCUUCCCCUGACUUGUUUGGAAGUAUCCAU | 0.0743 ratio
AGCACAUAAAAAGUUCCCCUCUGGCCCCUUCCCAAGUAAAACUUUUACCGUAGUGUUUAUGUCUUGUUUCUAAAUCUCUUCAUAGAUUCCAUCAACACUCCAGAUUUAAUUAUCUCCUCA | 1.93 ratio
AGACGAAGCUGCAGUGACCUGCUGCACCGGAUGAAGGAGCUCUGCAGAUACAUGAACAGCUUUGACAGCGAAGCUCACAACAACUAUAAAAACCAAGUGCUCUACUCCACGAUGCUGGUG | 0.104 ratio
UUAAAGGUGCGCUAUCCAGAGCGCAUCACAAUAUUGCGAGGAAAUCACGAAAGCCGGCAGAUCACACAAGUGUAUGGCUUUUAUGAUGAGUGCCUACGGAAGUAUGGAAAUGCCAACGUG | 0.147 ratio
GCUUUUCAAGCCAAGGAUGUGGAAGGAUCUACUUCUCCUCAAAUAGGAGAUAAGGUUGAAUUUAGUAUUAGUGACAAACAGAGGCCUGGACAGCAGGUUGCAACUUGUGUGCGACUUUUA | 2.05 ratio
GAGUUCCGUUCUGGAAAGGCACCCAUCCUUAUUGCUACAGAUGUAGCCUCCCGUGGGCUAGAUGUGGAAGAUGUCAAGUUUGUGAUCAACUAUGACUAUCCAAACAGCUCAGAGGAUUAU | 0.118 ratio
CCCAUAUUACAUGGACUAUGUACCUUUGGAUUUUCUGCAAGGCAUGUUUUACAGCAGUUUGCAGAUAAUGAUGUAUCAAGAUUCAAGGCGAUUAAGGUUCGUUUUGCCAAACCAGUGUAU | 0.114 ratio

Sample 3 — partner: H2BC15 (Homo sapiens, UniProt Q99877); method: cross-linking MS; notes: hits only
Molecule | interaction screen
H2AC7 (Homo sapiens, UniProt P20671) | cross-linked
H2AX (Homo sapiens, UniProt P16104) | cross-linked
H2BC12L (Homo sapiens, UniProt P57053) | cross-linked
HMGA1 (Homo sapiens, UniProt P17096) | cross-linked
H2BC5 (Homo sapiens, UniProt P58876) | cross-linked
H2AC11 (Homo sapiens, UniProt P0C0S8) | cross-linked
H2AZ1 (Homo sapiens, UniProt P0C0S5) | cross-linked
Histone H2B type 1-C/E/F/G/I (Homo sapiens, UniProt P62807) | cross-linked

Mixed results
Starting sequence: PafA, mature enzyme, eGFP fusion (Elizabethkingia meningoseptica, UniProt Q9KJX5); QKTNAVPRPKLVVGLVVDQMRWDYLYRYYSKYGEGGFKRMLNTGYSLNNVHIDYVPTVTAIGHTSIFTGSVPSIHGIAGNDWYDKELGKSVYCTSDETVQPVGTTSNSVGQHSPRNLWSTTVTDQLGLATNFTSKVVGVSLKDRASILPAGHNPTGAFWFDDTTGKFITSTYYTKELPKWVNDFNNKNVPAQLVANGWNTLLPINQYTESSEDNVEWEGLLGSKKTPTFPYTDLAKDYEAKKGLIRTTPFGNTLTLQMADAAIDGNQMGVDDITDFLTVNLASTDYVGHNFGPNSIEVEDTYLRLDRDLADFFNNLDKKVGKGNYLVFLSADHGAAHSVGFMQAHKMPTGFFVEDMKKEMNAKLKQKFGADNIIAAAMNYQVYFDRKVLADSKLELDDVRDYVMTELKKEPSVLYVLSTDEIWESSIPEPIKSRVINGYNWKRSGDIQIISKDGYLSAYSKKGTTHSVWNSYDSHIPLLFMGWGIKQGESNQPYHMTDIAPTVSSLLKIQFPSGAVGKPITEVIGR
Change | target | test | system | conditions | scale | quantity | value
I520V | inorganic phosphate, free oxyanion | microfluidic competitive inhibition | in vitro, cell-free expressed | not given, derived from inhibition constants, unchanged parent 615000 nM | lower = stronger binding | phosphate dissociation constant | 599 µM

Some of these lines once more (sample 1):
Oligonucleotide | E-score
GAACTTCC | 0.471
GGATGCTA | 0.324
